Published values gathered from unrelated publications.
Parts stem from different laboratories: compare values within a part only. Positions count from the first letter of the parent shown.

Study 1
Target: PABPC1L2, full length, GST fusion (mouse, UniProt A0ABA7IW68)
Technique: RNAcompete
Molecule type: RNA
Matrix: in vitro
Tested at: 20 nM
Setting: 7-mer, probes averaged, single round
Reference: mean of 7-mers
Reading: higher = stronger binding
Target sequence (chain): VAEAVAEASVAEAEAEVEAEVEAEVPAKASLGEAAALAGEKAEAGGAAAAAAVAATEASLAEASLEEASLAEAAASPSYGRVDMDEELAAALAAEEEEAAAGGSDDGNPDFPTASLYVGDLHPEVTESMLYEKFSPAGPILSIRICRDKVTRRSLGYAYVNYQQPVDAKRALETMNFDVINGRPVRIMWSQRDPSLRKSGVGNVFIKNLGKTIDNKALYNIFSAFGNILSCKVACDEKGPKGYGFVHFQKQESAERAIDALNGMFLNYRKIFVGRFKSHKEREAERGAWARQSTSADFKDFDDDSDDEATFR
With `AUUGGUC` the 7-mer Z-score was -0.155.
The 7-mer Z-score of `CAUUAUC` is reported as -0.182.
For `UCAACGG`, the 7-mer Z-score was -0.11.
For `GCCCACC`, the 7-mer Z-score was -0.445.
The 7-mer Z-score of `CAUUGCG` is reported as -0.0283.
The 7-mer Z-score of `AUCGCGU` is reported as -0.293.

Study 2
Target: CCNB1, cyclin fold, Cln2 fusion (human)
Technique: yeast growth competition, sequencing
Matrix: yeast
Setting: weak parent motif
Reference: not given
Reading: higher = stronger binding
Parent: GMNC docking peptide (human); KNAKRNLSSEFAN
`R5K` — result for “normalised enrichment score”: 0.341.
`L7C`: “normalised enrichment score” -0.311.
For `K4G`, “normalised enrichment score” read 0.331.
Under “normalised enrichment score”, `L7M` is recorded as 0.246.
For `A3Y`, “normalised enrichment score” read 0.226.

Study 3
Target: Interferon regulatory factor 7, full length, phosphomimetic (IRF7, Homo sapiens, UniProt Q92985, residues 1-503, S471D/S472D/S475D/S476D/S477D/S483D/S484D/S487D)
Technique: protein-binding microarray
Molecule type: double-stranded DNA, one strand shown
Matrix: in vitro
Tested at: 2200 nM top
Setting: 60-bp whole probe
Added: salmon DNA 0.4 mg/ml
Reference: random background probes
Reading: higher = stronger binding
Constant ends, left off below: GCCTAGCAC … GTCTTGATTCGCTTGACGCTGCTG
Target sequence (chain): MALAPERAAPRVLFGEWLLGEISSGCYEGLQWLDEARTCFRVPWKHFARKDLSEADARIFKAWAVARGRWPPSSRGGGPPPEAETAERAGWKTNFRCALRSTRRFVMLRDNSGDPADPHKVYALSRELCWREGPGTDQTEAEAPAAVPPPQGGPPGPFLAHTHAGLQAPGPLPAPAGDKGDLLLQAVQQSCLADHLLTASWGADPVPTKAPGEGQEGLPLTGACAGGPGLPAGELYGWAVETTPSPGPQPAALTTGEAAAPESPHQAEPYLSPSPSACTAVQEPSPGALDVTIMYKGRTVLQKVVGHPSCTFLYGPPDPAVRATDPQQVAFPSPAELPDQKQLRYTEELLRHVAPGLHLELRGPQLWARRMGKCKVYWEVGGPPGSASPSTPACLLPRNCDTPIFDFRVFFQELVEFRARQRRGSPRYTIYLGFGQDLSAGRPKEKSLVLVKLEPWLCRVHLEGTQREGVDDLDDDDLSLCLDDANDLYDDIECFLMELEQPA
For `CCTCCTCCCTGTTTCCATCTGTGCTAG`, “fitted relative affinity” read 2.17 z-score.
`CTAGGTCTCCTTATCCTTTAGTGCTAG`: “fitted relative affinity” 0.921 z-score.
`GACGGTATCGACACTGGGAACGTGCTA`: “fitted relative affinity” -0.22 z-score.
`TTAGATTTCAGTCTCGGTTAGTGCTAG` — result for “fitted relative affinity”: 1.21 z-score.
For `GACGGTCTCCGACTGGGGACGTGCTAG`, “fitted relative affinity” read -0.753 z-score.

Single results of other studies
With `PhoQ, residues 284 288 289 292 302 303 ALSMDL` the fold induction was 28.1 (PhoP, residues 12 14 15 18 19 HLGGL (Escherichia coli, UniProt P23836); Sort-seq, item: YFP reporter; E. coli; PhoQ-PhoP variant library, added: 10 µM Mg2+; reference: high Mg2+ state, higher = stronger signaling).

Some of these lines once more (study 3):
`CTAGGTCTCCTTATCCTTTAGTGCTAG`: “fitted relative affinity” 0.921 z-score.
`GACGGTATCGACACTGGGAACGTGCTA`: “fitted relative affinity” -0.22 z-score.
`TTAGATTTCAGTCTCGGTTAGTGCTAG` — result for “fitted relative affinity”: 1.21 z-score.
